# Measurements gathered from unrelated publications.
# Every numbered part comes from another study and shows a few of its results, in no order.

# Sample 1
# Target: RNA binding protein fox-1 homolog 2, RRM domain, GST-SBP tag (RBFOX2, Homo sapiens, UniProt O43251-10, residues 100-194)
# Method: RNA Bind-n-Seq
# Form: RNA
# Sample: in vitro
# Concentration: 365 nM
# Setting: natural RNA segment, single round, ends assumed
# Relative to: no-protein control
# Reading: higher = stronger binding
# Target sequence (chain): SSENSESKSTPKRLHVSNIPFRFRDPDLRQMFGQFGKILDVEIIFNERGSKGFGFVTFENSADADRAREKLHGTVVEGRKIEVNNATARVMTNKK
Strand,RBNS enrichment (R)
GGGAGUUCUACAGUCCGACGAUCACAUCUGCUCGUUCUUGCCGAGGGUGCAGUGGUGGCGUGGAAGCCCUGUCACCCCACCCCAGGCCACCCUCUCCCAGAGGACGCCAUCUCCCUUACUGUUGCUGGGAGCCUGGAAUUCUCGGGUGCCAA,0.391
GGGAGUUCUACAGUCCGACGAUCUUAAAAGAAAGCAGUAUAGAUGUCUUACCAUGAAAUACAUUACUCUAGGCUAAAAUUUCAACUGUUUUAGUCAUAGAUUUUUAGCAUCUUUGUUAGAUCAGCAUAUAAUUUGGAAUUCUCGGGUGCCAA,0.44
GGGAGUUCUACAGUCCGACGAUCUAAGAAAACUGGUCUUCAGAUAGUUAAGGGCUUGGGAUAAUUUAAGUGAAAAGUGAGAUCAGUAAUGAGCUGUGUUGUUAACAAUAUUAUCUGGUAAUAAUACCAUGCAAUGGAAUUCUCGGGUGCCAA,0.32
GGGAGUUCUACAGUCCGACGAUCUUACCGGUGUAAAUACCCAGUGUGCUUAUGAGUCAGUUAGUAGACGUCUUCAUUCAUUGGAGUAACUGGUUUAGGCUUUCCAGUUUGGAAAAGGAGCAGAGAGCUGUCCAUGGAAUUCUCGGGUGCCAA,0.337
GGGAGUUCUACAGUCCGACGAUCGAGUGCCAUCCGCCUCCCAGUCCGGUGUCACUCACCCAACCUUGUACAUGACUAGCUCUCCCAGUGUCCAAGCGCGUGCCUUCCCCGAGCCACUGGGGCGCAGCAGCGCGUGGAAUUCUCGGGUGCCAA,0.291
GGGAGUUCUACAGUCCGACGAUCUUAUGGGUCUUAUAGGGGAUAAAAUGCUCUUCUUCCAUGCGACACUUCCUUUCCCAUGAACACUUGCAGUUGCUAAGGGACUUUAUUUUGUAACAUAUUAAUUAUAAAUAUGGAAUUCUCGGGUGCCAA,0.477
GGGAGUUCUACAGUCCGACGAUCAACCCCUAGAGCAACCCCCUCUCCUAGCAUUGCCAAAUGCUGGUCUUGGUGAGGAUGGGUUUCAAACAGCACACUCCUCCCGGUGGAGGAAGAUUAACAACAGUCUCUCCUGGAAUUCUCGGGUGCCAA,0.279
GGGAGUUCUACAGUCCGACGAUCCAGCAUGUAUUCCUGGCAUGGGCUCUCCUAGUGGUCCAUGUGCAUCCUUGCGCAUGUGCACUCGCUCGCAGACUGAUGACCCUGCUUGCUGCAGAUGAAUGGUCAACGCGUGGAAUUCUCGGGUGCCAA,7.23

# Sample 2
# Target: RING finger protein unkempt homolog, zinc fingers 1-6, GST-SBP tag (UNK, Homo sapiens, UniProt Q9C0B0, residues 30-357)
# UniProt Q9C0B0, sequence (30-357, looked up): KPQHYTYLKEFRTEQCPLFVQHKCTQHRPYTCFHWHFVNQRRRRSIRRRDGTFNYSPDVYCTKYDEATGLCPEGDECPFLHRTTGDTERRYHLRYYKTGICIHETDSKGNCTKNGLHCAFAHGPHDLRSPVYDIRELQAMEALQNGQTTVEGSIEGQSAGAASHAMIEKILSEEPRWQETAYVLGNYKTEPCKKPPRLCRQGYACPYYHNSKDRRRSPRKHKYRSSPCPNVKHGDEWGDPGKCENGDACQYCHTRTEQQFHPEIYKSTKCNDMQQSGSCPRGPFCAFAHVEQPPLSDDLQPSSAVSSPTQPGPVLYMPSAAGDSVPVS
# Method: RNA Bind-n-Seq
# Form: RNA
# Sample: in vitro
# Concentration: not given
# Setting: RNA with constant flanks, human and mouse sites, ends assumed
# Relative to: input RNA pool
# Reading: higher = stronger binding
Strand,bound/input enrichment
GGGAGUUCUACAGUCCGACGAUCAUGUUUGAACGUGUUUCAGAUGUCAUGUGUUUAGUUUUUAUAUGUGUGUACAUAAUUAUAUAUAGAGAUAGACUUGUGUAUACACCUUCCACAAACACAUCCUCACGGAGAUACAUGUGCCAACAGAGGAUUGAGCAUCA,0.385 ratio
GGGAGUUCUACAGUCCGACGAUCUAUACUUCAUUGGGACCACGAGUAACUGAUGUAGCCACAUAAGGAGACAUAGGUUAUAAACUAGUUAUCUUUUAAAAGGCUCAGCAACACAACUCUUGAAAUGCUUAUCAGGAUAAUGGUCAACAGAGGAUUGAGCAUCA,1.21 ratio
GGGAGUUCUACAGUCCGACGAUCCCAAAAGCAGUGGUUUCUCCUCCAAAGUUUGUAUUUGGUUCAGAGUCUGUUAAAAGCAUUUUUAGUAGUGAAAAAUCAAAACCAUUUGCAUUCGGCAACAGUUCAGCCACUGGGUCUUUGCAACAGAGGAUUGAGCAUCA,0.166 ratio
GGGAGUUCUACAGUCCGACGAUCGCAGGGGCUCUCACACAUAUUUUCUUACUUAAACCUCCUCACAACUCUGAAGUAGAUGUAUUAUCCCUGGUUCUAUGAAUGAGAACAUUGGCCCAGAGAGGAUGACCCAGGUCUUGUAGUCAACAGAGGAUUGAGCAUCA,0.402 ratio
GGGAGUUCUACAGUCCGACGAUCGAAAGAAGCAGCAGCCCACCUUCUUUGUGUUUGCACAUGUGCCUAUGUCGUGUACAUUGGUACCUGACUGUGGCUCAGAUCUGCGUCGCAGCAGCGAGAGAAGAAAUCACUCCAUAUCCGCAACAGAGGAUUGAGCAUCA,0.149 ratio
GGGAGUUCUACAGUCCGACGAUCGAUGCCCGAGAUUCCUUGGUCAAGUUUUUUGGGCCUCUCAGUUCAAACACACUCCACCAGGUGGCAUCAUACCUCUGCCUCUUGCCAACGCUCCCUAAAAAUGAAGACACAACUUUUGAUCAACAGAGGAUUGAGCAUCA,0.241 ratio
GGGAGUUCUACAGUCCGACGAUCUCCGGUUUGGUGAUCAAUACAGCUGGAGAAAUGGCUGGAGCUUUUGUGGCAGUGUUUUUACUAGCAAUGUUCUAUGAAGGACUCAAGAUAGCCCGAGAGAGCCUGCUGCGUAAGUCACAACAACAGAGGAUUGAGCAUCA,0.136 ratio
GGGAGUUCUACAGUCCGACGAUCUUGCCUCCUCACUUUCCUGGGCAUUCCUCCGAGAUCUCCUGCCUCUCAACCUUUGCUAGUGCUAUUCUCUGUGCCUGGGACGAUACCUUUGACUCAUCUUCGACUGACCUAAUGGAGAGACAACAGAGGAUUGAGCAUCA,0.407 ratio

# Sample 3
# Target: Centromere-binding protein 1, full length, His-tagged (CBF1, Saccharomyces cerevisiae, UniProt P17106, residues 1-351)
# UniProt P17106, sequence (whole entry, looked up): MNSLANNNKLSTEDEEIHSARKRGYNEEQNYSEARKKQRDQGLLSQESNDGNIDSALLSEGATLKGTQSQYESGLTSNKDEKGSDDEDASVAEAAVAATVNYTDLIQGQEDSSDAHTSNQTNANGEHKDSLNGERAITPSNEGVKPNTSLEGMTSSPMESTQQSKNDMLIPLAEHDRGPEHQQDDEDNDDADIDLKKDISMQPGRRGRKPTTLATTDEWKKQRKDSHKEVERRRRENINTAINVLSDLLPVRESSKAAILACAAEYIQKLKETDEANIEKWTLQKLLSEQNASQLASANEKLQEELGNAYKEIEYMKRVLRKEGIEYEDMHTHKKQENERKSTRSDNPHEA
# Method: competition protein-binding microarray
# Form: double-stranded DNA, one strand shown
# Sample: in vitro
# Concentration: 2 µM
# Setting: whole 60-bp probe, lowest competitor level
# With: Pho4 competitor, 0.05 µM
# Reading: higher = stronger binding
Strand,fluorescence intensity [a.u.]
CTTTCCCGATCTTGTCACGGGACTTTAGCACATTTGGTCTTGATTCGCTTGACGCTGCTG,1330
TCATGCATCCATTGCCTCGTGTAACTGAAATCAAAGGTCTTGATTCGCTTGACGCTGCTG,117
TTACGGCCATTTCTGCTCGTGGTGAAGATCAAGTGTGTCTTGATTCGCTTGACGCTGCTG,73.8
AACATAAGACTAGCTCGCGTGGCCGAATGGCAACGCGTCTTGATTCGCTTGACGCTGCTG,58.3
TAAGAAGAAAGATCGAACGTGATTGTAATGCTCCAAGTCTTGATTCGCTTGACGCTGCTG,173
ATCATTTTTTACCATCACGCTTAACCTCGATATCTCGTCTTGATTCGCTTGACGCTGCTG,168
CTAACGAAGGTTTGTCACTACACTTACAAGCCAAGTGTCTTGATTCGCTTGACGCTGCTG,91.9
GTCTTGTCTCATTGAGTAGTGGGTGTCCCCACTTCAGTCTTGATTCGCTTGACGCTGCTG,88.1
AACTAAGAGAAATTGAACGTGGTCGCGATCTTTTAGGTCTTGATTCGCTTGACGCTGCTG,90.4
GGCCTTAACGGCAGCATCGTGGATTAACTTGGATTTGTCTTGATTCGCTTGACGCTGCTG,70.3
AGACTGGGTCTCAGTCAGCTGAACAGAAAACTTCAAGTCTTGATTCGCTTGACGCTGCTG,181
AATGCTGAGAGTAGGCACATGGAGTAGCTTGAGTCAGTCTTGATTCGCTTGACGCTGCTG,85.8
CGCAGCGGCTGGCAGCATGTGCAGGATAATGATAAGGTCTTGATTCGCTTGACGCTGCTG,157
ACTTCTCCTCTGATCTTCGTGATGGGAGTTTTGAGTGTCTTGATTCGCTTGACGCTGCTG,73.8
GTCTTGTCTCATTGCGTCGTGGGTGTCCCCACTTCAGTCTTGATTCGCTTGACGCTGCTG,71.1
AGTCATTGCGTTACCCACGTGGTCGTTATTGTCCATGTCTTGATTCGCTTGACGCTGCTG,1510
AGTATAGGGCATTTAAAGGTGTGCCAGCAGCGGGTTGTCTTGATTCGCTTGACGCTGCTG,67.9
CGGGGTTAAGTTTGTTCTGTGGGTGGCTTGCAGCAGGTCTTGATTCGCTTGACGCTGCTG,65.6
CGTCAGCAAAGGGGACCCGTGATGGAGGCGGCCGGGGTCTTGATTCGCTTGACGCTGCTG,99.1

# Sample 4
# Target: Ras GTPase-activating protein-binding protein 1, RRM domain (G3BP1, Homo sapiens, UniProt Q13283)
# UniProt Q13283, sequence (whole entry, looked up): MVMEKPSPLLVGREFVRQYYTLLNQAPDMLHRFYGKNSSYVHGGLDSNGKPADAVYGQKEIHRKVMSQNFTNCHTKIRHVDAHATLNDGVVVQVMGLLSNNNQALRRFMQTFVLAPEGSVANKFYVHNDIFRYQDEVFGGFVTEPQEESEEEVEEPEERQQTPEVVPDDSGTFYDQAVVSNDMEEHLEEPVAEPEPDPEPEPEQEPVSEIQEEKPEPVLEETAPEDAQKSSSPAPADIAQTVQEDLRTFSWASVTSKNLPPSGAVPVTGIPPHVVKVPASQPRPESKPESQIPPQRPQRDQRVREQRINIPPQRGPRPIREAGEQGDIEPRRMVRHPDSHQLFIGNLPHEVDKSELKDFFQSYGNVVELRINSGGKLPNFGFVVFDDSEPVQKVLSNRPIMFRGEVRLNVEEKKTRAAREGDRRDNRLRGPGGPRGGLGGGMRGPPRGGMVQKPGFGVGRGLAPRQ
# Method: RNA Bind-n-Seq
# Form: RNA
# Sample: in vitro
# Concentration: 1 µM
# Setting: whole 134-nt RNA, ends assumed
# With: 150 mM KCl
# Relative to: input library
# Reading: higher = stronger binding
Strand,log2 enrichment
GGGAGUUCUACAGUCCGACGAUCGUCCUGUGCUACACAUCGUAUGUACCGAAUCGGGGUUUUUGGUUUUUGGGUUUUUGGGAAAGUAUUAUGUUACGCCGUUCGGAUCUGCACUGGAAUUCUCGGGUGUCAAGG,-0.131
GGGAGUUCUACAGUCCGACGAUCGUCCUGUGCUACACAUCGUAUGUACCGAAUCGGAAAAAGGGGAAAAAGGGAAAAAGGGAAAGUAUUAUGUUACGCCGUUCGGAUCUGCACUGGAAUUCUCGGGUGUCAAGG,0.161
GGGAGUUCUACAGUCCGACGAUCUGUUGAUGCUGUAAUUGCUGAACUUAAAAAGCAGUCUAAACCUGUGACCACCCCUGAAGAAAUUGCACAGGUAAGGACUUAACAUGUUACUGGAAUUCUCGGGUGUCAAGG,0.221
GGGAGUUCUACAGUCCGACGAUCCUGUGCUACACAUCGUAUGUACCGAAUCGGUUUUUUUGGGGUUUUUUUGGGUUUUUUUGGGGAAAGUAUUAUGUUACGCCGUUCGGAUCUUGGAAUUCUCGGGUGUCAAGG,-0.219
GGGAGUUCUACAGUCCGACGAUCUGGCCCUGGUGGCAUGCGGGGAGGAAGAGGUGGCCUCAUGGAUCGUGGUGGUCCCAGUGGAAUGUUCAGAGGUGGCCGUGGUGGAGACAGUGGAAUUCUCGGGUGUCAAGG,0.569
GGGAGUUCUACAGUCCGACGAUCUCCUCAAGUCCUGUGCUACACAUCGUAUGUACCGAAUCGGGCGGGGCGGCGGAAAGUAUUAUGUUACGCCGUUCGGAUCUGCACUUCCAGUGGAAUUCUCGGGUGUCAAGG,-0.147
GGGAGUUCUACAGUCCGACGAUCUAACUUUAGAGGAGGAUCUGAUGGAUAUGGCAGUGGACGUGGAUUUGGGGAUGGCUAUAAUGGGUAUGGAGGAAGACCUGGAGGUGGCAAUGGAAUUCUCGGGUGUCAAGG,-0.415
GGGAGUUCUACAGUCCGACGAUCUGGCCCUGGUGGCAUGCGGGGAGGAAGAGGUGGCCUCAUGGAUCGUGGUGGUCCCGGUGGAAUGUUCAGAGGUGGCCGUGGUGUAGACAGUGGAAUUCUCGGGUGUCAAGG,1.72
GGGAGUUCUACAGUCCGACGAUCUUUACCCCUCACUGGAGUCAGAUGAAGACAACCCCAUCUUUAAGUCCCGGUCGAAGAAAAGGAAAGGCUCAGACGACGCUCCCUACAGCCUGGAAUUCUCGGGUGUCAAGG,0.0733

# Repeated from above (sample 4):
Strand,log2 enrichment
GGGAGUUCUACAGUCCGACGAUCUAACUUUAGAGGAGGAUCUGAUGGAUAUGGCAGUGGACGUGGAUUUGGGGAUGGCUAUAAUGGGUAUGGAGGAAGACCUGGAGGUGGCAAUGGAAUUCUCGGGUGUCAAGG,-0.415
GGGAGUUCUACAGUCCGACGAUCGUCCUGUGCUACACAUCGUAUGUACCGAAUCGGAAAAAGGGGAAAAAGGGAAAAAGGGAAAGUAUUAUGUUACGCCGUUCGGAUCUGCACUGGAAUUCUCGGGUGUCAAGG,0.161
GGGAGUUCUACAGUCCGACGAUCGUCCUGUGCUACACAUCGUAUGUACCGAAUCGGGGUUUUUGGUUUUUGGGUUUUUGGGAAAGUAUUAUGUUACGCCGUUCGGAUCUGCACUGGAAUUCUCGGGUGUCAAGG,-0.131
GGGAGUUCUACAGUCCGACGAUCUUUACCCCUCACUGGAGUCAGAUGAAGACAACCCCAUCUUUAAGUCCCGGUCGAAGAAAAGGAAAGGCUCAGACGACGCUCCCUACAGCCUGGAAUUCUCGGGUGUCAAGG,0.0733
